Measured values of several laboratories.
Each line is one published result; not all experiments were run side by side. pIC50: −log10 of the molar value.
Cell line: NCI-H23

Compound	assay	conditions	how to read	endpoint	value
C1=[N+]2CCCC[N+]3=Cc4ccc5[n]4[Au-]23[n]2c1ccc2-c1nc2ccccc2nc1-5.F[P-](F)(F)(F)(F)F	NCI60 five-dose screen			TGI	4.12 -log M
Cc1ccc([N+](=O)[O-])cc1S(=O)(=O)N(C)/N=C/c1cnc2ccc(Br)cn12	cell growth or viability			pIC50	< 5.00
O=C(CCl)c1ccccc1Nc1cccc(C(F)(F)F)c1	cell growth or viability, SRB	48 h		GI50	9860 nM
O=C(Nc1nnc2c1c(-c1ccc(Cl)cc1)nc1sc(=Cc3ccco3)c(=O)n12)c1ccccc1 (mixture of isomers)	SRB	10 µM, NCI60 single-dose screen	reference: untreated	cell growth	58.6%
CC(C)c1ccc(N(C)c2ccc3c(c2)OCC[C@H]3CNc2cnccc2C(=O)O)cc1	cell growth or viability, ATP luminescence	7 days		pIC50	7.37
Cc1ccc(C(=O)/C=C/c2ccccc2)s1	SRB	10 µM		growth inhibition	< 0%
CN(C)CCN1CCN(c2ccc3nc(-c4ccc5nc(-c6ccc(C(F)(F)F)cc6)[nH]c5c4)[nH]c3c2)CC1	SRB	10 µM, 48 h		growth percent	55.6%
CCCCCCCCCCCCCCCCCCOc1ccccc1CCOP(=O)([O-])OCC[N+](C)(C)C	cell growth or viability, SRB	10 µM		inhibition	3.81%
CNS(=O)(=O)Nc1nccc(Cc2c(C)c3ccc(Oc4ncccc4F)cc3oc2=O)c1F	cell viability	7 days		pIC50	6.74
CCCC(CCC)C(=O)OCc1cn(-c2cc3ccccc3oc2=O)nn1	NCI60 single-dose screen	10 µM		growth percentage	94.5%

Some of these lines once more:
Compound	assay	conditions	how to read	endpoint	value
CCCCCCCCCCCCCCCCCCOc1ccccc1CCOP(=O)([O-])OCC[N+](C)(C)C	cell growth or viability, SRB	10 µM		inhibition	3.81%
